Measurements pooled from the literature.
A part holds a random share of what one study measured. Substitutions count along the parent as printed.
Sequence of UniProt O15294 (whole entry, looked up): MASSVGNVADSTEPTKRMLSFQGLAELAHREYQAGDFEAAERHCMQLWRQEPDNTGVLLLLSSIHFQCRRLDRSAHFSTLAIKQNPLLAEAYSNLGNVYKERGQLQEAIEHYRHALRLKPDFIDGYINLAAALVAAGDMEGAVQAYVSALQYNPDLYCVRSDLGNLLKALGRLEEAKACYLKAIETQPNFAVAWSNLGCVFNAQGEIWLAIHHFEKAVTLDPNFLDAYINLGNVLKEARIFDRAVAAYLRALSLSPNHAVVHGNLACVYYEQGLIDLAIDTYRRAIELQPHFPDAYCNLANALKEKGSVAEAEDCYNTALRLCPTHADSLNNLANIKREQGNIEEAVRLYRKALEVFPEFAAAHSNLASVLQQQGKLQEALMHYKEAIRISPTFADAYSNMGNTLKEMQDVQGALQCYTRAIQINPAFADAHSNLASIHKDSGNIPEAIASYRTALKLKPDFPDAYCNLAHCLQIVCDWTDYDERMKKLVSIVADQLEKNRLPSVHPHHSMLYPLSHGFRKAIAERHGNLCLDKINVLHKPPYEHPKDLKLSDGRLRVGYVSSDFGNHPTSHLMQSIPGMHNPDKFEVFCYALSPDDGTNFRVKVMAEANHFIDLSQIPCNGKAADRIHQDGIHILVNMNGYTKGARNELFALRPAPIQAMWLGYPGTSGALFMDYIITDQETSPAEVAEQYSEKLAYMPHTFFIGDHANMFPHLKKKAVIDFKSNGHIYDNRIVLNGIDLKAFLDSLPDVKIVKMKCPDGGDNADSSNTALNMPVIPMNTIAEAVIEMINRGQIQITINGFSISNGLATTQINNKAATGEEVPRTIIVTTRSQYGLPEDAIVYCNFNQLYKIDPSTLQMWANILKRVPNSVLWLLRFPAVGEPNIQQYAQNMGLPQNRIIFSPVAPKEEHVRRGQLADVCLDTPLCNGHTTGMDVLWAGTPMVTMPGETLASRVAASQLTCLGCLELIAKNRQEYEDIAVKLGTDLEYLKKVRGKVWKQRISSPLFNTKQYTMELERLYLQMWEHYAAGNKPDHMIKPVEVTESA

Set 1
Target: Prothrombin, mature alpha-thrombin (F2, Homo sapiens, UniProt P00734)
Method: aptamer microarray, sandwich
Molecule type: DNA with 2'F-ANA
Matrix: in vitro
Concentration: 200 nM
Notes: whole 15-mer aptamer, many near background
Together with: Cy3 exosite-II aptamer, 400 nM
Reading: higher = stronger binding
Sequence: GGTTGGTGTGGTTGG
Modification | mean fluorescence intensity
2'F-ANA at 1 5 6 9 10 14 15 | 53.7 a.u.
2'F-ANA at 1 3 9 11 12 | 458 a.u.
2'F-ANA at 1 2 5 7 8 11 13 | 53.2 a.u.
2'F-ANA at 1 2 3 4 9 11 14 15 | 56.1 a.u.
2'F-ANA at 4 5 7 10 | 43.7 a.u.
2'F-ANA at 1 2 3 4 5 7 9 10 11 12 13 14 | 52.7 a.u.
2'F-ANA at 10 11 12 13 14 15 | 102 a.u.
2'F-ANA at 1 4 7 8 10 13 | 66.9 a.u.

Set 2
Target: CCND1, cyclin fold, Cln2 fusion (human)
Method: yeast growth competition, sequencing
Matrix: yeast
Notes: weak parent motif
Baseline: not given
Reading: higher = stronger binding
Starting sequence: GMNC docking peptide (human); KNAKRNLSSEFAN
Substitution | normalised enrichment score
N2T | 0.807
S9N | 0.752
A12W | 0.693
S9G | 0.201
R5K | 0.0737
R5W | 0.45
N6E | 0.469
A12P | 0.208

Set 3
Target: Histone acetyltransferase KAT6A, both winged helices, GST fusion (KAT6A, Homo sapiens, UniProt Q92794, residues 1-181)
Method: protein binding microarray
Molecule type: double-stranded DNA, one strand shown
Matrix: in vitro
Concentration: not given
Notes: 8-mer, flanks averaged, mean of 2 arrays, mostly near background
Baseline: not given
Reading: higher = stronger binding
Construct (chain): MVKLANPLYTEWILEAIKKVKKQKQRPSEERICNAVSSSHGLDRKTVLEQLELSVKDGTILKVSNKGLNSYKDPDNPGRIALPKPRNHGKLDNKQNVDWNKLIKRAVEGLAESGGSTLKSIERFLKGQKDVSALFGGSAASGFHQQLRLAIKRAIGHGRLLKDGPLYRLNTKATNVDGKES
Sequence | E-score
ATGAAGAA | -0.0449
CCGAGTTA | 0.022
ATCGGAGA | 0.0184
AATTGATG | -0.165
GTTTCTCA | -0.206
AGACAGAA | -0.187
ATTTAGAA | -0.191
GCGGGAGC | 0.249

Further values, each from its own experiment
Molecule | target | read-out | method | molecule type | baseline | quantity | result
HSWYGPTHHSVHDTT | UDP-N-acetylglucosamine--peptide N-acetylglucosaminyltransferase 110 kDa subunit (OGT, Homo sapiens, UniProt O15294) | binding | phage display NGS | peptide | input library | minimum log2 enrichment ratio | 2.4

Repeated from above (set 2):
Substitution | normalised enrichment score
A12W | 0.693
S9G | 0.201
R5K | 0.0737
